Published values pooled from the literature.
Lines come from different studies, so protocols differ. Numbers after ± are the reported error.
TDP1: Tyrosyl-DNA phosphodiesterase 1 (TDP1, Homo sapiens, UniProt Q9NUW8)
Chain of UniProt Q9NUW8 (whole entry, looked up): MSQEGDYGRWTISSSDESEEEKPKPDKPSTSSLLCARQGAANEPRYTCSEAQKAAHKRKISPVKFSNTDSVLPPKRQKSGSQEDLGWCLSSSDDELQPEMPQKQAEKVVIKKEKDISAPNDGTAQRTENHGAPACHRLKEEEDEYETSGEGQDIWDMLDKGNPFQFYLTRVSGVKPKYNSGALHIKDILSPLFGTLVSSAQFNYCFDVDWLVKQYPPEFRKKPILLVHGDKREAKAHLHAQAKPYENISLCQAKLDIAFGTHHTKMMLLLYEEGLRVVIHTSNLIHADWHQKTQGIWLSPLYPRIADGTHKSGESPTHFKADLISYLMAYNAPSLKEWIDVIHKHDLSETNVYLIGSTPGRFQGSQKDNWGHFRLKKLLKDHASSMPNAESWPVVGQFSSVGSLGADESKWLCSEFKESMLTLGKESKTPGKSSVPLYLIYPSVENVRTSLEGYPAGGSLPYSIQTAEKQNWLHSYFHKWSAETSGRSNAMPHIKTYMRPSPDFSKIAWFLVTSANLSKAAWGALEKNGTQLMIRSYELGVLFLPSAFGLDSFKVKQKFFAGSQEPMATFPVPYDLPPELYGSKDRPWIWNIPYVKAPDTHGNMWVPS

CN(C(=O)C(C)(C)c1cc(C(F)(F)F)cc(C(F)(F)F)c1)c1cnc(N2C[C@H]3COC(O)CN3C[C@H]2CO)cc1-c1ccc(F)cc1CO (stereo partly drawn) — Vmax (human liver microsomes; substrate depletion): 251 pmol/min/mg
Cc1ncsc1-c1ccc(C(C)NC(=O)C2CC(O)CN2C(=O)C(NC(=O)CCCCCCCCCCN2CCCC(Nc3ncc(Cl)c(Nc4ccccc4S(=O)(=O)C(C)C)n3)C2)C(C)(C)C)cc1 (stereo not drawn) — log2 fold change (22Rv1; RNA-seq, refers to: PLCH1 mRNA; concentration not given; relative to: DMSO): -2.06
[2H]C([2H])([18F])Oc1cc(C(=O)OCC2CCN(CCCC)CC2)ccc1N — BPND (PET SRTM; rhesus monkey, midbrain; baseline, unit not given; relative to: cerebellum): 0.28 ± 0.13
COc1cc(C=NOCc2ccc3nc(-c4ccccc4)c(Nc4ccc(C(=O)O)cc4)n3c2)cc(I)c1OC(C)=O — inhibition (TDP1; enzyme activity, inhibitor; 100 µM, unpurified compound): 3.5%
Cc1cc(F)ccc1-c1cc(N2C[C@H]3COC(O)CN3C[C@H]2CO)ncc1N(C)C(=O)C(C)(C)c1cc(C(F)(F)F)cc(C(F)(F)F)c1 (stereo partly drawn) — Vmax (human liver microsomes; substrate depletion): 76 pmol/min/mg
Nc1ncc(-c2cc(-c3cnn(CC(F)(F)F)c3)ncc2F)nc1C(=O)NC1CNCC(F)C1 (stereo not drawn) — remaining binding (CDC2L2; KINOMEscan; 1 µM; relative to: DMSO control): 100%
COC(=O)c1c(NC(=O)Cn2cnc([N+](=O)[O-])n2)sc2c1CCC(C)C2 (stereo not drawn) — translation activity (reporter mRNA translation, inhibitor, refers to: Renilla luciferase mRNA; Trypanosoma cruzi cell extract; concentration not given; relative to: positive and negative controls): 113%
COC1CN([C@H]2CC[C@H]([C@@]3(C)Oc4c(Cl)cc(C(=O)NCc5c(SC)cc(C)[nH]c5=O)c(C)c4O3)CC2)C1 — log2 fold change (RNA-seq, refers to: PROX1; human, whole blood; dose not given, 24 h; relative to: pretreatment baseline): 2.4
CCCCCC(O)/C=C/C=O (stereo not drawn) — isoTOP-ABPP competition ratio (Histone H3.2 (H3C15, Homo sapiens, UniProt Q71DI3); competitive isoTOP-ABPP, refers to: HIST2H3C cysteine peptide; proteome, soluble, MDA-MB-231; 100 µM, together with: iodoacetamide probe; relative to: DMSO over compound-treated, higher = stronger cysteine blockade): 1.8
CNS(=O)(=O)Nc1nccc(Cc2c(C)c3ccc(Oc4ncccc4F)cc3oc2=O)c1F — IC50 (BV-173; cell viability; 7 days): 710 nM
O=C(O)c1ccc(Nc2c(-c3ccc(CON=Cc4cccc5[nH]ccc45)cc3)nc3cc(-c4ccccc4)ccn23)cc1 — inhibition (TDP1; enzyme activity, inhibitor; 100 µM, unpurified compound): 17.2%
CN(C)CCCCCN(C)Cc1cc2ccccc2o1.Cl — translation activity (reporter mRNA translation, inhibitor, refers to: Renilla luciferase mRNA; Trypanosoma cruzi cell extract; concentration not given; relative to: positive and negative controls): 112%

Some of these lines once more:
CCCCCC(O)/C=C/C=O (stereo not drawn) — isoTOP-ABPP competition ratio (Histone H3.2 (H3C15, Homo sapiens, UniProt Q71DI3); competitive isoTOP-ABPP, refers to: HIST2H3C cysteine peptide; proteome, soluble, MDA-MB-231; 100 µM, together with: iodoacetamide probe; relative to: DMSO over compound-treated, higher = stronger cysteine blockade): 1.8
